Measured values gathered from unrelated publications.
A part holds a random share of what one study measured. Values joined by “and” are separate records of one study, mostly repeats; a detail may differ.

Study 1 — cell line: HEK-293T/ACE2; tested at: concentration not given; time: 16 (unit not given); reference: vehicle
Compound | viability
CNC(=O)c1cc(Oc2ccc(NC(=O)Nc3ccc(Cl)c(C(F)(F)F)c3)cc2)ccn1 | 88.2% and 93.4%
CCCC(=O)O[C@]1(C(=O)CO)CC[C@H]2[C@@H]3CCC4=CC(=O)CC[C@]4(C)[C@H]3[C@@H](O)C[C@@]21C | 106%
CS(=O)(=O)CCNCc1ccc(-c2ccc3ncnc(Nc4ccc(OCc5cccc(F)c5)c(Cl)c4)c3c2)o1 | 80%
CNC(=C[N+](=O)[O-])NCCSCc1csc(CN(C)C)n1 | 101%
N=C(N)N/N=C/c1c(Cl)cccc1Cl | 101%

Study 2 — method: RNA Bind-n-Seq; molecule type: RNA; sample: in vitro; tested at: 365 nM; reference: no-protein control; reading: higher = stronger binding
Target: RNA binding protein fox-1 homolog 2, RRM domain, GST-SBP tag (RBFOX2, Homo sapiens, UniProt O43251-10, residues 100-194)
Notes: natural RNA segment, single round, ends assumed
Shared flanks, not repeated: GGGAGUUCUACAGUCCGACGAUC … UGGAAUUCUCGGGUGCCAA
Construct (chain): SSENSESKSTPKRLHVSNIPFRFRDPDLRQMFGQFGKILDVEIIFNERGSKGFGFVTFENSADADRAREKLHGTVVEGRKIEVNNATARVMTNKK
Sequence | RBNS enrichment (R)
CUUGCUCUGUCGCCCAGGCUGGAGCGCAGUGGCGCAAUCUCGGCUCACUGCAACCUCCACCUCCUGGGUUCAAGCAAUUCUUGUGCCUCAGCCUCCCGAGUAGCUGGGAU | 0.313
CAGGGAUCCAAAGGGAACACAGUAUGUAGGUCAAACUGGCAGUAACAGUGUACAGCCUUUGACAAACUAGAAAUAUUAGAGUAGGCCAAACACACCUCCAAACUGUAAGG | 0.314
UCAACUGCUUUACUAAGGAGCAAUGUUGUCCUGCGCCGGCACACUCAAGAUGUAUCUGAGUAGCUGCCUGAAAGCAGAUGACACUGCAGUCAGGAGGUGAGAGGCUGAGG | 0.238
AGGCGACCGCGGCGCAGCUCCCACCCCGCCCUGCCCGGCCCCGAGCGCUUGCCCGAGGCCAGCGCGCUCCCCGCGCCAGGACUCCAUUAAAGCCGCUAAGACGCGCGGGC | 0.379
UCAGGACCCCGCCUCUGUCCUCACUGUGCCAGGCCAUAGCCAGAGGCCACCCUGUAGUACAGGGAUGAGUCUUGGUGUGUUCUGCAGGGACAGGCCUGGAUGAUCUAGCU | 0.274
CAUGUCACGAUGUCAGAUUCAACAGGAGAACUCUGUGCCCUUCCUAUAGACACCAAAUGUCUGGCACAAUCUCUACUGAGCAGCACCCACUUAAGACAGCAGAGCACCUU | 0.824
GGAGGGGCAACACUGUUAGAUGUGAGGAAAGGAAGUGCCAAAAAUGCCUGGACAGAUGGCUUGUCCCAAGGCCAGGACACACACUUUAAAAUCCAACAUUCACCUAAGCA | 1.23
CAGAUUGAGGUCUCUGUGGCUUUGGUGACCCUGCUUAAGCAUUCCCACCGUGUCCCUGUUCUGCGCUAGCACUGCCUCCUGCUGCAGCCCCUGACUUGACCUCAGGGCCU | 0.603

Study 3 — method: protein binding microarray; molecule type: double-stranded DNA, one strand shown; sample: in vitro; tested at: not given; reference: not given; reading: higher = stronger binding
Target: Histone acetyltransferase KAT6A, both winged helices, GST fusion (KAT6A, Homo sapiens, UniProt Q92794, residues 1-181)
Notes: 8-mer, flanks averaged, mean of 2 arrays, mostly near background
Target sequence (chain): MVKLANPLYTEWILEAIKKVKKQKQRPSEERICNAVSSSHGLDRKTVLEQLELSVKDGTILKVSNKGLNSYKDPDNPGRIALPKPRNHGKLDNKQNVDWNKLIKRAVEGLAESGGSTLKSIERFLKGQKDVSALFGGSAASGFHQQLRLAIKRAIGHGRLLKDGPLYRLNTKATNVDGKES
Sequence | E-score
GATCTTAA | 0.0703
CAACCCTC | -0.244
GGCCGCCA | 0.142
AAGGCAAC | -0.0989
CGATATGA | 0.0464
TAAAGCTA | -0.173
AGCTACAG | -0.153
ACGGCCCC | 0.228

Study 4 — method: universal PBM; molecule type: double-stranded DNA, one strand shown; sample: in vitro; tested at: 600 nM; reading: higher = stronger binding
Target: Sal-like protein 4, full length isoform A (SALL4, Homo sapiens, UniProt Q9UJQ4, residues 1-1053)
Chain of UniProt Q9UJQ4 (whole entry, looked up): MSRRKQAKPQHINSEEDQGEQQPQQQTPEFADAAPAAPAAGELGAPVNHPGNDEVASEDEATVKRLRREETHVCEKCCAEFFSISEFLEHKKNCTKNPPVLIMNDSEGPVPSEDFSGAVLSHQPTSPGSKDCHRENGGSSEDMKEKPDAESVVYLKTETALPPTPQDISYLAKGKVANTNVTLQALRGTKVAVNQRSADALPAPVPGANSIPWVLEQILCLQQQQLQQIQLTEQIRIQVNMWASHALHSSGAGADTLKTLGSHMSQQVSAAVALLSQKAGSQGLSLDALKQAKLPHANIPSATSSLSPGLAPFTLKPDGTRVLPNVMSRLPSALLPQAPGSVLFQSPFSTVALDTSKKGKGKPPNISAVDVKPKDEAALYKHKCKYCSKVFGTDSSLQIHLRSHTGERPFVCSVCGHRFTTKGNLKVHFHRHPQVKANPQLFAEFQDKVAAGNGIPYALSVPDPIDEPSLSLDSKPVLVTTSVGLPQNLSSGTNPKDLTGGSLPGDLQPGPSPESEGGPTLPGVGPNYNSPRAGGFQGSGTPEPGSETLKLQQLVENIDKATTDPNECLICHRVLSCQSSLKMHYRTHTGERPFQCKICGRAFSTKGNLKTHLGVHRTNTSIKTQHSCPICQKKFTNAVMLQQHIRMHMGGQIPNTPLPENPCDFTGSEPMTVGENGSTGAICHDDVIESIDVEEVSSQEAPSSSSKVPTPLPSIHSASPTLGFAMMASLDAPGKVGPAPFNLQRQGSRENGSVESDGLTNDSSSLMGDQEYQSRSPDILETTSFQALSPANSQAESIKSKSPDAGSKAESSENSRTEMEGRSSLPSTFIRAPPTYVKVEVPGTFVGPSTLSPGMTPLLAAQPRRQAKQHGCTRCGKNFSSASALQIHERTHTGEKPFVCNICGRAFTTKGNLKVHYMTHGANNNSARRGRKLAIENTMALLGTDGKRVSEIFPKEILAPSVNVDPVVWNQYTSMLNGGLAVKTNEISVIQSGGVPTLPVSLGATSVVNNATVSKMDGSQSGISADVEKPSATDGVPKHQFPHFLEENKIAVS
Notes: 8-mer, flanks averaged, mean of replicates
Sequence | E-score
AAAGCATC | 0.0882
CGCTTAAC | -0.019
CAGGAACA | 0.0848
GTTTACAA | 0.178
ATTTATAG | 0.355
CCTCGTGA | 0.0155
ACAATGTA | 0.184
CCAAAGGA | 0.00396

Study 5 — observed: enzyme activity; action: inhibitor; tested at: 20 µM; notes: primary screen
Target: Replicase polyprotein 1ab, main protease (rep, Severe acute respiratory syndrome coronavirus 2, UniProt P0DTD1)
Compound | inhibition
CN(C)CCNc1nc2cc(O)ccc2c2c1C(=O)c1ccccc1-2 | 96.1%
Nc1ccc(O)c2ncccc12 | 99.3%
CCN(CC)C(=S)[S-].O.O.O.[Na+] | 96.6%

Study 6 — observed: enzyme activity; action: inhibitor; tested at: 20 µM
Target: Replicase polyprotein 1ab, polymerase (rep, Severe acute respiratory syndrome coronavirus 2, UniProt P0DTD1)
Structure (SMILES) | inhibition
NC(=O)C[S@@+]([O-])C(c1ccccc1)c1ccccc1 | -11.3%
O=C(O)C(O)[C@H](O)[C@@H](O)[C@H](O)[C@H](O)CO (stereo partly drawn) | 3.35%
O=C(CCCN1CCC(n2c(=O)[nH]c3ccccc32)CC1)c1ccc(F)cc1 | -1.58%
CC(Cc1ccccc1)(NC(=O)CN)c1ccccc1 (stereo not drawn) | -9.22%
CN(Cc1cnc2nc(N)nc(N)c2n1)c1ccc(C(=O)N[C@@H](CCC(=O)O)C(=O)O)cc1 | 30%
Cc1nc2ccccc2c(-c2ccc3c4c(ccnc24)CCO3)c1[C@H](OC(C)(C)C)C(=O)O | -0.45%
COc1ccc(C(Cl)=C(c2ccc(OC)cc2)c2ccc(OC)cc2)cc1 | 0.53%
CC(=O)OCC1=C(C(=O)O)N2C(=O)[C@@H](NC(=O)CCCC(N)C(=O)O)C2SC1 (stereo partly drawn) | 3.78%
COC(=O)N[C@H](C(=O)N1CCC[C@H]1C(=O)Nc1ccc([C@@H]2CC[C@@H](c3ccc(NC(=O)[C@@H]4CCCN4C(=O)[C@@H](NC(=O)OC)C(C)C)cc3)N2c2ccc(C(C)(C)C)cc2)cc1)C(C)C | -1.01%
CCOc1cc2ncc(C#N)c(Nc3ccc(OCc4ccccn4)c(Cl)c3)c2cc1NC(=O)/C=C/CN(C)C | -4.67%
COc1cc([C@@H]2c3cc4c(cc3[C@H](O)[C@H]3COC(=O)[C@H]23)OCO4)cc(OC)c1OC | 2.88%
CN(C)C(=O)[C@H](O)[C@H](Cc1ccccc1)NC(=O)c1cc2cc(Cl)ccc2[nH]1 | -9.9%
CC(=Nc1ccccc1N)c1c(C)cc(=O)n(O)c1O | -4.43%
COC(=O)C1=CO[C@@H](O[C@@H]2O[C@H](CO)[C@@H](O)[C@H](O)[C@H]2O)[C@@H]2C(CO)=CC[C@H]12 | 7.96%
NC(=O)c1ncn([C@@H]2O[C@H](CO)[C@@H](O)[C@H]2O)n1 | -2.47%
COc1cc(NS(C)(=O)=O)ccc1Nc1c2ccccc2nc2ccccc12 | 0.25%
CC(=O)NC[C@H]1CN(c2ccc(-c3ccc(CNCc4cnn[nH]4)cc3)c(F)c2)C(=O)O1 | 0.63%
Nc1ncnc2c1C(=O)N(c1ccc([C@H]3CC[C@H](CC(=O)O)CC3)cc1)CCO2 | 0.91%
NCC(=O)CCC(=O)O | -10.1%
COc1ccc2c(c1)C(C(=O)N(Cc1ccc(N(C)C)cc1)c1ccc(C(C)C)cc1)CCC2 (stereo not drawn) | -7.62%
COc1cc(C(=O)NS(=O)(=O)c2ccccc2C)ccc1Cc1cn(C)c2ccc(NC(=O)OC3CCCC3)cc12 | 33%
Cc1cc(/C=C2\SC(=O)N(c3ccccc3)C2=O)c(C)n1-c1cccnc1 | -0.52%
NC(=O)N[C@@H](CCC(=O)O)C(=O)O | -37.8%
CNC(=O)c1ccccc1Nc1cc(Nc2ccc(N3CCOCC3)cc2OC)ncc1C(F)(F)F | 0.36%
COc1nccc(-c2c(-c3ccc(F)cc3)ncn2[C@H]2CC[C@H](O)CC2)n1 | 3.16%

Some of these lines once more (study 6):
Structure (SMILES) | inhibition
Cc1nc2ccccc2c(-c2ccc3c4c(ccnc24)CCO3)c1[C@H](OC(C)(C)C)C(=O)O | -0.45%
COc1ccc(C(Cl)=C(c2ccc(OC)cc2)c2ccc(OC)cc2)cc1 | 0.53%
CC(=O)OCC1=C(C(=O)O)N2C(=O)[C@@H](NC(=O)CCCC(N)C(=O)O)C2SC1 (stereo partly drawn) | 3.78%
COC(=O)N[C@H](C(=O)N1CCC[C@H]1C(=O)Nc1ccc([C@@H]2CC[C@@H](c3ccc(NC(=O)[C@@H]4CCCN4C(=O)[C@@H](NC(=O)OC)C(C)C)cc3)N2c2ccc(C(C)(C)C)cc2)cc1)C(C)C | -1.01%
CCOc1cc2ncc(C#N)c(Nc3ccc(OCc4ccccn4)c(Cl)c3)c2cc1NC(=O)/C=C/CN(C)C | -4.67%
COc1cc([C@@H]2c3cc4c(cc3[C@H](O)[C@H]3COC(=O)[C@H]23)OCO4)cc(OC)c1OC | 2.88%
